{"data": "Experimental data of several laboratories", "note": "Each numbered part is a random draw from the data of one study; scales do not carry over between parts."}
{"data": "Set 1", "target": "Interferon regulatory factor 3, full length, phosphomimetic (IRF3, Homo sapiens, UniProt Q14653, residues 1-427, S386D/S396D/S398D/S402D/T404D/S405D)", "method": "protein-binding microarray", "molecule type": "double-stranded DNA, one strand shown", "matrix": "in vitro", "tested at": "2540 nM top", "setting": "60-bp whole probe", "added": "salmon DNA 0.4 mg/ml", "relative to": "random background probes", "direction": "higher = stronger binding", "shared flanks, not repeated": "GCCTAGCAC … GTCTTGATTCGCTTGACGCTGCTG", "sequence of UniProt Q14653 (whole entry, unmodified, looked up)": "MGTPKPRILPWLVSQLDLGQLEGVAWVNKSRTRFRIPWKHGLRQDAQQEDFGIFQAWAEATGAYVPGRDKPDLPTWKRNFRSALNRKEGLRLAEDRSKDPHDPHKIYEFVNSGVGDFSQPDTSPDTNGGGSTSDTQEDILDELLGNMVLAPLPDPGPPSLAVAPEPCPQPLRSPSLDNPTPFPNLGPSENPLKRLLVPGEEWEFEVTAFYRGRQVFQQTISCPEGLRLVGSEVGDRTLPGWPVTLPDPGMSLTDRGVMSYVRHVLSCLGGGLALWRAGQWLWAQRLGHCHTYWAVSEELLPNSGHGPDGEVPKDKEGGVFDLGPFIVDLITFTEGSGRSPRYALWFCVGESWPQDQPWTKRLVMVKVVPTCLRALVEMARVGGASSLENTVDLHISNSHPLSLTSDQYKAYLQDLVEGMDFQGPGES"}
{"Oligonucleotide": "TTGTTTTTCATTATTGTCTTGTGCTAG", "fitted relative affinity": "1.73 z-score"}
{"Oligonucleotide": "AAACGGATGATCTCTCTGGGCGTGCTA", "fitted relative affinity": "-0.187 z-score"}
{"Oligonucleotide": "GACGGGTTCGACTATCGGGACGTGCTA", "fitted relative affinity": "-0.0625 z-score"}
{"Oligonucleotide": "GACGGTTTCAACTTTCGGGACGTGCTA", "fitted relative affinity": "2.48 z-score"}
{"Oligonucleotide": "GACGGTCTCCTTATACTGACGTGCTAG", "fitted relative affinity": "2.38 z-score"}
{"Oligonucleotide": "TCAGTTCTCCCTTTCAGACTGTGCTAG", "fitted relative affinity": "3.88 z-score"}
{"Oligonucleotide": "GACGGCCTGGGTTTCGGGACGTGCTAG", "fitted relative affinity": "0.628 z-score"}
{"Oligonucleotide": "TTAGATCTCAAACTGGATTAGTGCTAG", "fitted relative affinity": "-0.0011 z-score"}
{"Oligonucleotide": "GTTTTTTGGTTTCTGGTTTAGTGCTAG", "fitted relative affinity": "3.86 z-score"}
{"Oligonucleotide": "TCATTCCTCTTTTTTGTACTGTGCTAG", "fitted relative affinity": "2.07 z-score"}
{"Oligonucleotide": "GACGGTCTCGGTCTCGGGAAGTGCTAG", "fitted relative affinity": "1.41 z-score"}
{"Oligonucleotide": "TTAGTTCTCGGACTGGGTTAGTGCTAG", "fitted relative affinity": "0.295 z-score"}
{"Oligonucleotide": "GGCGATATCAGTATCGAGACGTGCTAG", "fitted relative affinity": "1.12 z-score"}
{"Oligonucleotide": "TTAGGACTGCTACTGGTTTAGTGCTAG", "fitted relative affinity": "-0.553 z-score"}
{"Oligonucleotide": "TCAATTTTCTAAATGCCACTGTGCTAG", "fitted relative affinity": "1.07 z-score"}
{"Oligonucleotide": "GACGGTTTCGTTATCCTGACGTGCTAG", "fitted relative affinity": "6.17 z-score"}
{"Oligonucleotide": "GACGATTTCGGGATTCGAGACGTGCTA", "fitted relative affinity": "1.99 z-score"}
{"Oligonucleotide": "TTAGGTATCGACTATCGGTTGGTGCTA", "fitted relative affinity": "0.312 z-score"}
{"Oligonucleotide": "TTAGGTATCGGTCTAGGTTAGTGCTAG", "fitted relative affinity": "2.91 z-score"}
{"Oligonucleotide": "GGCCCTGTCCTTTTCTTTACGTGCTAG", "fitted relative affinity": "1.8 z-score"}
{"Oligonucleotide": "TTTGATATCGGGTATCGATTAGTGCTA", "fitted relative affinity": "0.454 z-score"}
{"Oligonucleotide": "TCATGCTTTCCTTTATGACTGTGCTAG", "fitted relative affinity": "4.2 z-score"}
{"Oligonucleotide": "TTCGGTTTCGGTATCGGTTAGTGCTAG", "fitted relative affinity": "8.7 z-score"}
{"Oligonucleotide": "GGCGGTTTCGGACTGGGGACGTGCTAG", "fitted relative affinity": "4.72 z-score"}
{"data": "Set 2", "target": "RNA binding protein fox-1 homolog 2, RRM domain, GST-SBP tag (RBFOX2, Homo sapiens, UniProt O43251-10, residues 100-194)", "method": "RNA Bind-n-Seq", "molecule type": "RNA", "matrix": "in vitro", "tested at": "365 nM", "setting": "natural RNA segment, single round, ends assumed", "relative to": "no-protein control", "direction": "higher = stronger binding", "shared flanks, not repeated": "GGGAGUUCUACAGUCCGACGAUC … UGGAAUUCUCGGGUGCCAA"}
{"Oligonucleotide": "GCAUAUACCAAAGGCCAGCUGCAUGCCCAUCAGUCUGGUCUUUUUCCUCUGCGGUCAUGUUGGCUUUCAUGCUGGAUCAAAUGUUUUACUUUCCCAGACUGGUGGCAUCU", "RBNS enrichment (R)": 4.11}
{"Oligonucleotide": "UCCUGUGUUUAGAUGCUUUAAUGUUCAUAAAGCCUGUCUUGUGACUGGACUGUCAGCUGUCCAACUGUCCCUGUUGUAAGUGCUAUUAACUAUCUCAGUUACCAGAAUCU", "RBNS enrichment (R)": 0.615}
{"Oligonucleotide": "CUCACAGCAGGCAGCAUAUGUUGAAAUAAGUUAUUACUGGUACACACCUGCAUUGCCUCACCAGUGUAUUUAUUUGUUAUUAAAUUGAUCUGACUUCUCAGCCUCAUUUG", "RBNS enrichment (R)": 1.93}
{"Oligonucleotide": "ACUUCCAAUGUGACUAAAAAGAGAAAAAAAAUCACUGUGUCACUUUAAAGAAAAAUCUUCUAAGGGAUUUGGAUUUUACUUUCUUUAGAAUGACAAGUGAAUCAUAUUGA", "RBNS enrichment (R)": 0.691}
{"Oligonucleotide": "UUUAUUGAGUGAAGCCUUAAAAAGCACACACCACACACAGCUAACUGCCAAAAUACAUUGACCGUAGUAGCUGUUCAACUCCUAGUACUUAGAAAUACACGUAUGGUUAA", "RBNS enrichment (R)": 0.699}
{"Oligonucleotide": "GGCCUCUGAGGUCACCUUCCCUUCCGGCCUGCUUGCUUUGUCUUACAAGACUUCUUGGCUUUUCCAAAGACAGAGAUUUCUGGGGGGAAGCCGAAUAUUUCUACCUAAAC", "RBNS enrichment (R)": 0.777}
{"Oligonucleotide": "ACGGGGCUCACUCUGGCCCCCUAUUGUCUCCAAGGUCCCAUUUUCCCCCUGUGUUUUCACGCAGGUCAUAUUGUCAGUCCUACAAAAAUAAAAGGCUUCCAGAGGAGAGU", "RBNS enrichment (R)": 0.418}
{"Oligonucleotide": "AGGAAAAAGCACAGCCUCGAAUGGAGGCAGCCUAAACUCUUGUCUGUCCUCUUCAUGGUGUCUCUUCCGUGUUUUGCUGAGCUGUUCUCAGGCACCCCCUCACUGCUCCC", "RBNS enrichment (R)": 0.456}
{"Oligonucleotide": "GAAUGCGGUCCACCUUUCUAUGUACUCUAGCUUCCCUCUCUUCAGGUUGAUAUAGCGACAUUACCUGGGCUCUGUGCUGUCCUGUGGGUGGAGGCCAUUAUCACUGGGCU", "RBNS enrichment (R)": 0.546}
{"Oligonucleotide": "ACCAGUUAGAUUCUUGCUCCCAGAUUGACUGUUAGUUUUCAGGAAACAAGGCUAUCUUUGGUCAUAUUCUCUGCUCUGGAAUUUCUGGGCUAGUCUUUCCUGAAUUCUAA", "RBNS enrichment (R)": 0.408}
{"Oligonucleotide": "GAACGUAUCAAUACAGUUUAUAAAGCCAAGAAUUGCUAUGAUUUAAGACUAAGAUCUGUCUUUUUGGUGACUAACCCUUCAAUUCUUUCAACUCCUGUUAAUACCCAUAA", "RBNS enrichment (R)": 0.39}
{"Oligonucleotide": "CCUUCCCCAUCUCUCCUCACCAUUCUGCCUACAAGGCUUCUAGCAGCACGGGGGCCCGGAGGGAGAGCCCCUUCAGGGUUCAGAGUGAAGUACUACCUUGCCAGGGACUC", "RBNS enrichment (R)": 0.662}
{"data": "Set 3", "target": "Sal-like protein 4, full length isoform B (SALL4, Homo sapiens, UniProt Q9UJQ4-2, residues 1-616)", "method": "universal PBM", "molecule type": "double-stranded DNA, one strand shown", "matrix": "in vitro", "tested at": "not given", "setting": "8-mer, flanks averaged, mean of replicates", "direction": "higher = stronger binding"}
{"Oligonucleotide": "CTGGTAGC", "E-score": -0.211}
{"Oligonucleotide": "CATCAGCA", "E-score": 0.0263}
{"Oligonucleotide": "CCATTCGC", "E-score": -0.254}
{"Oligonucleotide": "AATGAGCT", "E-score": 0.098}
{"Oligonucleotide": "GGTTCTGA", "E-score": -0.0973}
{"Oligonucleotide": "CTCTCTTA", "E-score": 0.0544}
{"Oligonucleotide": "ATTGGATG", "E-score": 0.123}
{"Oligonucleotide": "AGATTCAT", "E-score": 0.199}
{"Oligonucleotide": "ATTACGAC", "E-score": 0.168}
{"Oligonucleotide": "AAGTATAC", "E-score": 0.303}
{"Oligonucleotide": "AAACGTTA", "E-score": 0.246}
{"Oligonucleotide": "ACTAGCGA", "E-score": -0.0377}
{"Oligonucleotide": "GGGGTGGA", "E-score": -0.142}
{"Oligonucleotide": "ATTTTTAA", "E-score": 0.296}
{"Oligonucleotide": "AAAGGACG", "E-score": 0.0402}
{"Oligonucleotide": "ATAAGGCC", "E-score": -0.0481}
{"Oligonucleotide": "AATGCGGA", "E-score": -0.0322}
{"Oligonucleotide": "CGGAGGTC", "E-score": -0.232}
{"Oligonucleotide": "CGTTGCAG", "E-score": -0.135}
{"Oligonucleotide": "ATTGGCCA", "E-score": -0.0901}
{"Oligonucleotide": "ATCAAGTC", "E-score": 0.123}
{"Oligonucleotide": "GAGCGTCC", "E-score": -0.329}
{"Oligonucleotide": "CAGAAATC", "E-score": 0.122}
{"Oligonucleotide": "AGAACCCT", "E-score": -0.206}
{"Oligonucleotide": "GTGGTAAA", "E-score": -0.00287}
{"data": "Set 4", "target": "Ras GTPase-activating protein-binding protein 1, full length (G3BP1, Homo sapiens, UniProt Q13283)", "method": "RNA Bind-n-Seq", "molecule type": "RNA", "matrix": "in vitro", "tested at": "200 nM", "setting": "whole 134-nt RNA, ends assumed", "added": "150 mM KCl", "relative to": "input library", "direction": "higher = stronger binding", "shared flanks, not repeated": "GGGAGUUCUACAGUCCGACGAUC … UGGAAUUCUCGGGUGUCAAGG", "sequence of UniProt Q13283 (whole entry, looked up)": "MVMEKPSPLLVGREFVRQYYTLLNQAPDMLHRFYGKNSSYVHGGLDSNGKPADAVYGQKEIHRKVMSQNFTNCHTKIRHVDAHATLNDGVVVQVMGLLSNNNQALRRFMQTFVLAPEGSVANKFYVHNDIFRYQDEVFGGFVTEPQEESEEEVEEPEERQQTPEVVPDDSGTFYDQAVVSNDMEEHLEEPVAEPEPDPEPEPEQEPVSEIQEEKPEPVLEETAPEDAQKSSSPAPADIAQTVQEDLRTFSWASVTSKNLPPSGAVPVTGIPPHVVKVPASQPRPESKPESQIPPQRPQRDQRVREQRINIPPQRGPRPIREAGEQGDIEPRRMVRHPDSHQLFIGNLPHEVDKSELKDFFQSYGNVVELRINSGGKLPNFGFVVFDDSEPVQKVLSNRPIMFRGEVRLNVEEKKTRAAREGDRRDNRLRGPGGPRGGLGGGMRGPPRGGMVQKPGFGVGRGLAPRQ"}
{"Oligonucleotide": "UCCUGUGCUACACAUCGUAUGUACCGAAUCGGCCCCCCGGGGCCCCCCGGCCCCCCGGGAAAGUAUUAUGUUACGCCGUUCGGAUCUGCA", "log2 enrichment": -0.911}
{"Oligonucleotide": "UAACUUUAGAGGAGGAUCUGAUGGAUAUGGCAGUGGACGUGGAUUUGGGGAUGGCUAUAAUGGGUAUGGAGGAGCACCUGGAGGUGGCAA", "log2 enrichment": -0.0387}
{"Oligonucleotide": "CAAGUCCUGUGCUACACAUCGUAUGUACCGAAUCGGAAAAAGGAAAAAAAGGUGGAAAGUAUUAUGUUACGCCGUUCGGAUCUGCACUUC", "log2 enrichment": -1.04}
{"Oligonucleotide": "UCCUGUGCUACACAUCGUAUGUACCGAAUCGGGGUUUGGGGUUUUUGGGGAAAAAGGGGAAAGUAUUAUGUUACGCCGUUCGGAUCUGCA", "log2 enrichment": 0.609}
{"Oligonucleotide": "GUCCUGUGCUACACAUCGUAUGUACCGAAUCGGAAAAAAGGGAAAAAAGGAAAAAAGGAAAGUAUUAUGUUACGCCGUUCGGAUCUGCAC", "log2 enrichment": -1.04}
{"Oligonucleotide": "UUCACCAGUUUCACUGUGAGCCUCAACGAGCUGGAGACAGGCAUGGAGAAGACCCUGCCACCCACGGACUGCCGCCUGCGCCCUGACAUC", "log2 enrichment": -0.0356}
{"Oligonucleotide": "CCUGUGCUACACAUCGUAUGUACCGAAUCGGGCCCCCCCGGGCCCCCCCGGCCCCCCCGGAAAGUAUUAUGUUACGCCGUUCGGAUCUGC", "log2 enrichment": 0.00849}
{"Oligonucleotide": "UGCAGCUCUCCGGCUGGGAUCCUGGUUGACGCCAUGUCCCAGAAGCACCUUCAGAUCAACCAGACAUUUGAGGAGCUGCGACUGGUCACG", "log2 enrichment": -1.78}
{"Oligonucleotide": "CUCAAGUCCUGUGCUACACAUCGUAUGUACCGAAUCGGGAGGGGAGGGGAGGGGAAAGUAUUAUGUUACGCCGUUCGGAUCUGCACUUCC", "log2 enrichment": 1.49}
{"Oligonucleotide": "GUGCUACACAUCGUAUGUACCGAAUCGGGGAAAAAAAGGGGAAAAAAAGGGGUUUUUUUGGGGAAAGUAUUAUGUUACGCCGUUCGGAUC", "log2 enrichment": -0.141}
{"Oligonucleotide": "UGGGAGGUGGAUUUUGUUUAUUUCUUUAGCUCAUUUCCAGGGGUGGGAAUUUUUUUUUAAUAUGUGUCAUGAAUAAAGUUGUUUUUGAAA", "log2 enrichment": 0.219}
{"Oligonucleotide": "AAGUCCUGUGCUACACAUCGUAUGUACCGAAUCGGGAAAGGGUGGGAAAAAAAGGGAAAGUAUUAUGUUACGCCGUUCGGAUCUGCACUU", "log2 enrichment": -0.0293}
{"Oligonucleotide": "UGGUGGACAGAAGGCACUGCAGCCUGAAAUGGCAGAGUCUGGUGCUGACGAUCCGCGAGAAGAUCAAUGCUGCCAUCCAGGACAUGCCAG", "log2 enrichment": -1.64}
{"Oligonucleotide": "UCCUGUGCUACACAUCGUAUGUACCGAAUCGGGGAAAAAAGGGAAAAAAGGAAAAAAGGGAAAGUAUUAUGUUACGCCGUUCGGAUCUGC", "log2 enrichment": -0.198}
{"note": "Excerpt of the above (set 3):"}
{"Oligonucleotide": "ATCAAGTC", "E-score": 0.123}
{"Oligonucleotide": "CTGGTAGC", "E-score": -0.211}
{"Oligonucleotide": "ATTACGAC", "E-score": 0.168}
{"Oligonucleotide": "CATCAGCA", "E-score": 0.0263}
